# Earlier results, collected from citations in different studies.
# Compare with care: the assays were run in different laboratories. ± marks the error that the study gave.
# B1: CCL1; sequence looked up; chain KSMQVPFSRCCFSFAEQEIPLRAILCYRNTSSICSNEGLIFKLKRGKEACALDTVGWVQRHRKMLRHCPSKRK
Molecule,tested on,test,test system,setting,scale,quantity,value
pegcetacoplan,"Complement C3 (Homo sapiens, UniProt P01024)",,human subjects,"subcutaneous, 1440 mg single dose",baseline: placebo,serum level increase,~100%
cucurbit[7]uril,insulin,amyloid toxicity,,concentration not given,,cytotoxicity reduction,~100%
coproporphyrin I,OATP1B1,,human,"dose not given, with: rifampicin",baseline: without rifampicin,AUC fold increase,4 fold
teicoplanin,,,,pH 7.4,,logD,-3.6
DRDRPECSTMVKYEQKLPSLGKYALKRAIKIKFGRK,Staphylococcus aureus,,"peptide, ATCC 6538",,,MIC,7 µM
LAGGSASSADAAFR,,"isocratic RP-HPLC, C18 column","peptide, water/acetonitrile, 0.1% TFA",25 °C,,retention coefficient S,21.2
[18F]AlF-NOTA-octreotide,,,human plasma,2 h,,remaining intact compound,98.5 ± 0.5%
B1 (CCL1),CCR8 Y114A mutant,"IP accumulation, agonist",,,,EC50,0.131 µM
ivermectin,A549,,,,,CC50,10 µM
LHQLAFDTYQEFEEAYIPK,,"isocratic RP-HPLC, C18 column","peptide, water/acetonitrile, 0.1% TFA",25 °C,,retention coefficient S,27.6
AMTLRKRKFAWYVLSSSLKWLIKKAKKIGVQVCGFE,Staphylococcus aureus,,"peptide, ATCC 6538",,,MIC,4 µM
LLGGGSLSSSLDAAAFR,,"isocratic RP-HPLC, C18 column","peptide, water/acetonitrile, 0.1% TFA",25 °C,,retention coefficient S,20.9
coproporphyrin III,OATP1B1,,monkey,"dose not given, with: rifampicin",baseline: without rifampicin,AUC fold increase,3.6 fold

# A few entries again:
Molecule,tested on,test,test system,setting,scale,quantity,value
LHQLAFDTYQEFEEAYIPK,,"isocratic RP-HPLC, C18 column","peptide, water/acetonitrile, 0.1% TFA",25 °C,,retention coefficient S,27.6
cucurbit[7]uril,insulin,amyloid toxicity,,concentration not given,,cytotoxicity reduction,~100%
